# Measurements gathered from unrelated publications.
# Protocols differ between the studies behind these lines. ± marks the error that the study gave.
SMILES,cell line,test,conditions,IC50
C=C(C[C@@H]1CCSc2ccc(C)cc21)c1ccccc1,RAW264.7,"cytotoxicity, CCK-8",24 h,82.7 µM
O=C1NN=C(N=Cc2ccccc2O)C1=NNn1c(-c2ccccc2)nc2ccccc2c1=O,NIH 3T3,"cytotoxicity, MTT",,226 µM
O=c1ccn([C@H]2C=C[C@@H](CO)O2)c(=O)[nH]1,CEM-CCRF,"cell growth, trypan blue exclusion",6 d,55.9 µM
CC1=NN(CNc2c(O)c(S(=O)(=O)O)cc3ccccc23)C(=O)C1=NNn1c(-c2ccccc2)nc2ccccc2c1=O,NIH 3T3,"cytotoxicity, MTT",,206 µM
C#Cc1cccc(Nc2ncnc3cc(OCCOC)c(OCCOC)cc23)c1,BJ-1,"cytotoxicity, LDH release",48 h,84 ± 1.97 µM
CC1=NN(CNC(=O)c2ccccc2)C(=O)C1=NNn1c(-c2ccccc2)nc2ccccc2c1=O,NIH 3T3,"cytotoxicity, MTT",,171 µM
C=C(C[C@@H]1CCSc2ccc(Cl)cc21)c1ccccc1,RAW264.7,"cytotoxicity, CCK-8",24 h,144 µM
O=c1[nH]cnc2c1ncn2[C@H]1CC[C@@H](CO)O1,CEM-CCRF,"cell growth, trypan blue exclusion",6 d,> 100 µM
C=C(C[C@@H]1CCOc2ccc(C)cc21)c1ccccc1,RAW264.7,"cytotoxicity, CCK-8",24 h,155 µM
N=C(N)c1cccc(OCCCCCCCOc2cccc(C(=N)N)c2)c1,HeLa DM1 model,"cytotoxicity, propidium iodide flow cytometry","18 h, 50% cell death",30 ± 4.9 µM
Cc1c(O)cc(C[C@]23C[C@H](C[C@H](C)O2)c2c4c(c(O)c(C)c2O3)CO[C@]2(CCC[C@H](C)O2)C4)c(C=O)c1O,A549,cell growth or viability,,6.8 µM
Cc1cn([C@H]2C=C[C@@H](CO)O2)c(=O)[nH]c1=O,CEM-CCRF,"cell growth, trypan blue exclusion",6 d,> 100 µM
CC1=NN(CNc2ccc(O)cc2)C(=O)C1=NNn1c(-c2ccccc2)nc2ccccc2c1=O,NIH 3T3,"cytotoxicity, MTT",,62.1 µM
CN1CCN2CCN(CC1)CCN(Cc1ccccc1)CC2,THP-1,cell growth or viability,,> 20 µM
C=C(C[C@@H]1CCSc2ccc(OC)cc21)c1ccccc1,RAW264.7,"cytotoxicity, CCK-8",24 h,267 µM
O=c1[nH]cc(F)c(=O)[nH]1,NHDF,MTT,"72 h, 10% FBS",> 200 µM
